Experimental data pooled from the literature.
Every numbered part comes from another study and shows a few of its results, in no order. Values joined by “and” are separate records of one study, mostly repeats; a detail may differ.

Block 1 — cell line: mouse MPNST tumor cells; technique: high-content immunofluorescence imaging; item: nuclear SOX9; tested at: 10 µM; time: 12 h; notes: mean of 2 replicates; relative to: DMSO control; reading: higher = more nuclear SOX9
For `COc1cccc(C2(O)CCCCC2CN(C)C)c1` (stereo not drawn), “nuclear SOX9 intensity” read 88.8 % of DMSO.
Under “nuclear SOX9 intensity”, `C[C@]12COC(=O)C[C@@H]1CC[C@@H]1[C@@H]2CC[C@@]2(C)[C@H]1CC[C@]2(C)O` is recorded as 91.2 % of DMSO.
For `CCC1(c2cccc(O)c2)CCCCN(C)C1` (stereo not drawn), “nuclear SOX9 intensity” read 96.2 % of DMSO and 98.5 % of DMSO.
Under “nuclear SOX9 intensity”, `CC(N)Cc1c[nH]c2ccc(O)cc12` (stereo not drawn) is recorded as 86.7 % of DMSO.
`Cc1cc2c(cc1-c1cc(/C=C/C(=O)O)ccc1O)C(C)(C)CCC2(C)C`: “nuclear SOX9 intensity” 126 % of DMSO.
Under “nuclear SOX9 intensity”, `OC(CNc1ccccc1)Cn1c2ccc(Br)cc2c2cc(Br)ccc21` (stereo not drawn) is recorded as 163 % of DMSO.
`CC(=O)O[C@H]1CC[C@@]2(C)C(=CC[C@@H]3[C@@H]2CC[C@]2(C)C(=O)CC[C@@H]32)C1`: “nuclear SOX9 intensity” 97.8 % of DMSO.

Block 2 — cell line: A-375; tested at: 100 µM; time: 18 h
With `Cc1c(N)nc([C@H](CC(N)=O)NC[C@H](N)C(N)=O)nc1C(=O)N[C@H](C(=O)N[C@H](C)[C@@H](O)[C@H](C)C(=O)N[C@H](C(=O)NCCc1nc(-c2nc(C(=O)NCCC[S+](C)C)cs2)cs1)[C@@H](C)O)[C@@H](O[C@@H]1O[C@@H](CO)[C@@H](O)[C@H](O)[C@@H]1O[C@H]1O[C@H](CO)[C@@H](O)[C@H](OC(N)=O)[C@@H]1O)c1c[nH]cn1` the viability was 31.2%.
With `N=C(N)NN` the viability was 107%.
`CCCC(C)(COC(N)=O)COC(=O)NC(C)C` (stereo not drawn) gave a viability of 86.9%.

Block 3 — organism: Plasmodium berghei; action: inhibitor; cell line: Huh-7; strain: GFP-expressing sporozoites, liver stage; tested at: 10 µM; time: 24 h; relative to: untreated control
`COc1cc2c(cc1OC)[C@@]13CCN4CC5=CCO[C@H]6CC(=O)N2[C@H]1[C@H]6[C@H]5C[C@H]43` gave an infection rate of 48.6%.
`Cc1ccc(/N=C/N(C)/C=N/c2ccc(C)cc2C)c(C)c1` gave an infection rate of 134%.
With `CCCCOC(=O)c1ccccc1C(=O)OCCCC` the infection rate was 86.5%.
`c1ccc2c(c1)sc1ccccc12` gave an infection rate of 115%.

Block 4 — read-out: RNA clamping; technique: fluorescence polarization; tested at: concentration not given; together with: FAM-labelled poly r(AG)8 RNA; reading: higher = more clamping
Target: Eukaryotic initiation factor 4A-I (EIF4A1, Homo sapiens, UniProt P60842)
UniProt P60842, sequence (whole entry, looked up): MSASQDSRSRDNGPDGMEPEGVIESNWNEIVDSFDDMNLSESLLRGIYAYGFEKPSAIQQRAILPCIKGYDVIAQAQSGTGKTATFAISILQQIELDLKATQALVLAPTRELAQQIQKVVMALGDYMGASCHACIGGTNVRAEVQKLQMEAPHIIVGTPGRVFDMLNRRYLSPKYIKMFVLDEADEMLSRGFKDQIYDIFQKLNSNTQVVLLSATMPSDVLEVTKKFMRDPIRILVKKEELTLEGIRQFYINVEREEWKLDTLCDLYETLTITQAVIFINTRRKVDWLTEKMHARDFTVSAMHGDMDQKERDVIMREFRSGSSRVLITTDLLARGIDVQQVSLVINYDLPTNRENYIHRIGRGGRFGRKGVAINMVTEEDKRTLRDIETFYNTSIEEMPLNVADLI
`COc1ccc([C@@]23Oc4cc(OC)cc(OC)c4[C@]2(O)c2nc(-c4ccncc4)[nH]c(=O)c2[C@H]3c2ccccc2)cc1`: “fluorescence polarization change” 16.4 mP.
Under “fluorescence polarization change”, `COc1ccc([C@@]23Oc4cc(OC)cc(OC)c4[C@]2(O)c2nc(-c4cnccn4)[nH]c(=O)c2[C@H]3c2ccccc2)cc1` is recorded as 36.9 mP.
`COc1ccc([C@@]23Oc4cc(OC)cc(OC)c4[C@]2(OC)c2nc(-c4ccccc4)nc(OC)c2[C@H]3c2ccccc2)cc1`: “fluorescence polarization change” -13.4 mP.
Under “fluorescence polarization change”, `COC(=O)[C@@H]1[C@@H](c2ccccc2)[C@]2(c3ccc(OC)cc3)Oc3cc(OC)cc(OC)c3[C@@]23OC(C)=N[C@@]13O` is recorded as 30.2 mP.
`COc1ccc([C@@]23Oc4cc(OC)cc(OC)c4[C@]2(O)c2nc(C(C)C)[nH]c(=O)c2[C@H]3c2ccccc2)cc1` — result for “fluorescence polarization change”: 41.1 mP.
`COCc1nc2c(c(=O)[nH]1)[C@@H](c1ccccc1)[C@]1(c3ccc(OC)cc3)Oc3cc(OC)cc(OC)c3[C@]21O`: “fluorescence polarization change” 69.6 mP.
`COC(=O)[C@@H]1[C@@H](O)[C@@]2(O)c3c(OC)cc(OC)cc3O[C@@]2(c2ccc(Br)cc2)[C@H]1c1ccccc1` — result for “fluorescence polarization change”: 23.1 mP.
`COc1ccc([C@]23Oc4cc(OC)cc(OC)c4[C@](O)([C@H](c4ccccc4)[C@H]2C(=O)NCCCCNC(=O)c2ccccc2)[C@H]3O)cc1` — result for “fluorescence polarization change”: 3.1 mP.
`COc1ccc([C@@]23Oc4cc(OC)cc(OC)c4[C@]2(O)c2nc(-c4cccnc4)[nH]c(=O)c2[C@H]3c2ccccc2)cc1` — result for “fluorescence polarization change”: 42.4 mP.
Under “fluorescence polarization change”, `COc1ccc([C@@]23Oc4cc(OC)cc(OC)c4[C@]2(O)[C@H](O)[C@H](C(=O)O)[C@H]3c2ccccc2)cc1` is recorded as 65.8 mP and 59.4 mP.
Under “fluorescence polarization change”, `COc1ccc([C@@]23Oc4cc(OC)cc(OC)c4[C@]2(O)c2nc(-c4ccc(Cl)nc4)[nH]c(=O)c2[C@H]3c2ccccc2)cc1` is recorded as 17.5 mP.
Under “fluorescence polarization change”, `COc1ccc([C@@]23Oc4cc(OC)cc(OC)c4[C@]2(O)c2nc(-c4ccc(Br)cc4)[nH]c(=O)c2[C@H]3c2ccccc2)cc1` is recorded as -2 mP.
`COC(=O)[C@@H]1[C@@H](c2ccccc2)[C@]2(c3ccc(OC)cc3)Oc3cc(OC)cc(OC)c3[C@@]23N=C(C)N[C@@]13O` — result for “fluorescence polarization change”: 77 mP and 92.5 mP.

Some of these lines once more (block 4):
`COc1ccc([C@]23Oc4cc(OC)cc(OC)c4[C@](O)([C@H](c4ccccc4)[C@H]2C(=O)NCCCCNC(=O)c2ccccc2)[C@H]3O)cc1` — result for “fluorescence polarization change”: 3.1 mP.
`COc1ccc([C@@]23Oc4cc(OC)cc(OC)c4[C@]2(OC)c2nc(-c4ccccc4)nc(OC)c2[C@H]3c2ccccc2)cc1`: “fluorescence polarization change” -13.4 mP.
